# Published values gathered from unrelated publications.
# Numbered parts are unrelated; each lists some results of a single study. Positions count from the first letter of the parent shown.
# Chain of UniProt P07949 (whole entry, unmodified, looked up): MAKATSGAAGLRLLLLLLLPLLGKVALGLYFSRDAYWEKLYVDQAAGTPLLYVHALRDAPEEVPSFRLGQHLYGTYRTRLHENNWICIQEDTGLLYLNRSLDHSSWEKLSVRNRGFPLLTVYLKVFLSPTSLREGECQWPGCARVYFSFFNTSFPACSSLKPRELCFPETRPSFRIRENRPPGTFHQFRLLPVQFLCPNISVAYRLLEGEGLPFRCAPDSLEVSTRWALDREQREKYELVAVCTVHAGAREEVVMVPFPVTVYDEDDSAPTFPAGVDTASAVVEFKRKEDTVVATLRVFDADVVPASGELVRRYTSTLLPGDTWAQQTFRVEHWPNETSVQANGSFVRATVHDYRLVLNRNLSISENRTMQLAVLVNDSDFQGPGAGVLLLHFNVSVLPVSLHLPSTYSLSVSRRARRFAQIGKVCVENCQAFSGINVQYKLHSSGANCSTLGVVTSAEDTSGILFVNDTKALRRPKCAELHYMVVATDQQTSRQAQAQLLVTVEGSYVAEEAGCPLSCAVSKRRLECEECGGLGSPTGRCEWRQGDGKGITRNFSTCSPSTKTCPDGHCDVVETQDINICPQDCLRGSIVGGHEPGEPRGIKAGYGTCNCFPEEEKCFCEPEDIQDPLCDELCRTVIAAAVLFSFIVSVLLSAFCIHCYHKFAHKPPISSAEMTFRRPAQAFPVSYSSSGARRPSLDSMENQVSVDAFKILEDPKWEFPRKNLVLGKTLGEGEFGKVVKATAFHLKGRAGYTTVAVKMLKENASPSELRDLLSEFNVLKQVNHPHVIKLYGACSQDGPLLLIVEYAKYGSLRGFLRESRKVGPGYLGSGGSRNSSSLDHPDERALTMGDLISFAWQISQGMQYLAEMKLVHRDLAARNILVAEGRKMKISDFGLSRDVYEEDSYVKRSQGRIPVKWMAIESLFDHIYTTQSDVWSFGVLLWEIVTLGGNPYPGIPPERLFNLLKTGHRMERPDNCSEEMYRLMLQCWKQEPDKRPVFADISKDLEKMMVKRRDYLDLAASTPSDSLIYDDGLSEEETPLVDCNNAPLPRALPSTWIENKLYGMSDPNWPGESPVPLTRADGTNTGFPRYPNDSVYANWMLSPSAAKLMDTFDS
# Chain of UniProt Q9NWZ3 (whole entry, looked up): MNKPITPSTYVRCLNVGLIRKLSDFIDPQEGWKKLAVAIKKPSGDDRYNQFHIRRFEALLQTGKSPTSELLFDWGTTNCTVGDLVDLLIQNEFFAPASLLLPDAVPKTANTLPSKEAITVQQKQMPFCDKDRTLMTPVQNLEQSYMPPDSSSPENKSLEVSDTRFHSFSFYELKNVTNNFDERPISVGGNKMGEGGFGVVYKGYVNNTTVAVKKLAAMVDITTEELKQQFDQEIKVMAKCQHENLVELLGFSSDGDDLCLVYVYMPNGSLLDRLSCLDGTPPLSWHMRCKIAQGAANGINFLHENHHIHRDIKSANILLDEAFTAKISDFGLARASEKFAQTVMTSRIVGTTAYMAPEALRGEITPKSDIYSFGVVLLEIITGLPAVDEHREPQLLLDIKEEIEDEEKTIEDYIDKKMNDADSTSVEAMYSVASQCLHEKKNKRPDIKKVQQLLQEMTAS
# Chain of UniProt P43250 (whole entry, looked up): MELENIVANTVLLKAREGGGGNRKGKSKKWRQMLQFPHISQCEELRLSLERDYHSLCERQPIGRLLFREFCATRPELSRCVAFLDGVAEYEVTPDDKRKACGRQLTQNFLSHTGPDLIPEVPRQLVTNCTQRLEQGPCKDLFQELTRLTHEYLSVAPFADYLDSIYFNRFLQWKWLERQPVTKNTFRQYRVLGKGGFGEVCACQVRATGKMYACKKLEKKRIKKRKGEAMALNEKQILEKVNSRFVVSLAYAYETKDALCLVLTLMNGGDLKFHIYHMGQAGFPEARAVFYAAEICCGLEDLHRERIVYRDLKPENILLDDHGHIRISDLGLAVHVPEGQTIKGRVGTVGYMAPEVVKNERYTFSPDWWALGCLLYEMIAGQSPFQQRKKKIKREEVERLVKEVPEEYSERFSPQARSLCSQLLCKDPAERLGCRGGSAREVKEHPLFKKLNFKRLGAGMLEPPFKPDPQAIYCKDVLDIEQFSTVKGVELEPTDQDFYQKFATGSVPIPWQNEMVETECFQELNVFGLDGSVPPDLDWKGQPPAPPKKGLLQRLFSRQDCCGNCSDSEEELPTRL
# Chain of UniProt P42336 (whole entry, looked up): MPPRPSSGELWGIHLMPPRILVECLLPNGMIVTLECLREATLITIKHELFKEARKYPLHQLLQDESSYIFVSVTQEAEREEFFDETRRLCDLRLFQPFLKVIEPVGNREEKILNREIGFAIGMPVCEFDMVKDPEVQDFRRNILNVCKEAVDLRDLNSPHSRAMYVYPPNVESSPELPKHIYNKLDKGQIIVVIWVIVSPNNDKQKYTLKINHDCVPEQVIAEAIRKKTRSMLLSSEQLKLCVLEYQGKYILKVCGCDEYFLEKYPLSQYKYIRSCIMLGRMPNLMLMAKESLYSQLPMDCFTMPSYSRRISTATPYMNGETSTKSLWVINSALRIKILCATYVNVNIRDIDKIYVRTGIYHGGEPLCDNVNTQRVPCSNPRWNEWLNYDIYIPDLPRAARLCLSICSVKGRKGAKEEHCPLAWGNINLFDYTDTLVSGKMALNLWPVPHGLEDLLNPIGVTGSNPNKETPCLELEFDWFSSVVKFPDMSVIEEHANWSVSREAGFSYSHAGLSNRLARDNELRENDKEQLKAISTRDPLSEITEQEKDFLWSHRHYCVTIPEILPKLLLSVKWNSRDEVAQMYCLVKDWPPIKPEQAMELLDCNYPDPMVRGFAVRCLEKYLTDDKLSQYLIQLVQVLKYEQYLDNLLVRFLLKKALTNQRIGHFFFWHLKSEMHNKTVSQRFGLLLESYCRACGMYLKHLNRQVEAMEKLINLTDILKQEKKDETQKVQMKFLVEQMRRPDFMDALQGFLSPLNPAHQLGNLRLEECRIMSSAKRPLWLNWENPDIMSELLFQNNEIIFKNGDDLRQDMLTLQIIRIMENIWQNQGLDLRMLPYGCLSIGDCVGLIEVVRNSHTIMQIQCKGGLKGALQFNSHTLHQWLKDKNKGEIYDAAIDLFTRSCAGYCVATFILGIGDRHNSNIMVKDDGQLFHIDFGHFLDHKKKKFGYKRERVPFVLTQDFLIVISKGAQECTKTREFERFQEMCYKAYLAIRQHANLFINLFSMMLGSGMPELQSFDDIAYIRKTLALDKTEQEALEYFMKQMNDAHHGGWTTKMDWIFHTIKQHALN
# Chain of UniProt Q16566 (whole entry, looked up): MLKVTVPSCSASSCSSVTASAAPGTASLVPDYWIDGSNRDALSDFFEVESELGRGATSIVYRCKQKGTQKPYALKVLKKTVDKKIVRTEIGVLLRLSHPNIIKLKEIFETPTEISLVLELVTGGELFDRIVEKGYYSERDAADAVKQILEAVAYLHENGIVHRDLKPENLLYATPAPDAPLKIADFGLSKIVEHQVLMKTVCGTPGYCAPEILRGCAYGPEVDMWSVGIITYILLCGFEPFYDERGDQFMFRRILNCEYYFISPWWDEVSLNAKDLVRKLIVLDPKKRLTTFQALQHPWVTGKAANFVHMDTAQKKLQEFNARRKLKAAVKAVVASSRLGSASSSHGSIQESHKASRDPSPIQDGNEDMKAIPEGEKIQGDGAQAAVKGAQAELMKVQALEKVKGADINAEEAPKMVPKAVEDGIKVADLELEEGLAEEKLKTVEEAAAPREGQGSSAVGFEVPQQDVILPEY
# Chain of UniProt P25098 (whole entry, looked up): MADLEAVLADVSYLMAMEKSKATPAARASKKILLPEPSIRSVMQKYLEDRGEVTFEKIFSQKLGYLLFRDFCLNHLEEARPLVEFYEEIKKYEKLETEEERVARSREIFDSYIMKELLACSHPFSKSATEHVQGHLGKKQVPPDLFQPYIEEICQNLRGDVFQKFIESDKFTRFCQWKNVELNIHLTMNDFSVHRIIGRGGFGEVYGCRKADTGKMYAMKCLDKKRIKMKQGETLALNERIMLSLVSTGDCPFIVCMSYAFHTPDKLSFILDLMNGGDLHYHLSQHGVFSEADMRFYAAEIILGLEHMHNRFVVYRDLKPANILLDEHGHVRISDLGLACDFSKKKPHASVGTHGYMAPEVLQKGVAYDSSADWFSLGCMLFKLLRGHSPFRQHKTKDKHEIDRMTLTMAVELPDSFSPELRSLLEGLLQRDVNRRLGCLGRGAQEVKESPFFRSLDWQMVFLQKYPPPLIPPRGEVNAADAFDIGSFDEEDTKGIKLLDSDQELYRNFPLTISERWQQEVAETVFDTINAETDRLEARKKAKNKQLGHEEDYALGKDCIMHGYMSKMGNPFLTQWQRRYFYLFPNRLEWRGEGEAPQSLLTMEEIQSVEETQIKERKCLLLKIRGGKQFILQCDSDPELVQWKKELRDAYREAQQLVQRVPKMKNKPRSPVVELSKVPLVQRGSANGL
# Chain of UniProt P61075 (whole entry, looked up): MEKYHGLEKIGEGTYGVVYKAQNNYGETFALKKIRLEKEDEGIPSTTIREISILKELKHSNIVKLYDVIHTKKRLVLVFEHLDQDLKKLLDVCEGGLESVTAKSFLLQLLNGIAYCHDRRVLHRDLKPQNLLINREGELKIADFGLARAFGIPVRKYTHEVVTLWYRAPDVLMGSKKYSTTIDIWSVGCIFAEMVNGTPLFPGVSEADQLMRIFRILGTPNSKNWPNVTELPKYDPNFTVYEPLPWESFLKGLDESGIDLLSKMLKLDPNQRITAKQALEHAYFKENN
# Chain of UniProt Q9UQB9 (whole entry, looked up): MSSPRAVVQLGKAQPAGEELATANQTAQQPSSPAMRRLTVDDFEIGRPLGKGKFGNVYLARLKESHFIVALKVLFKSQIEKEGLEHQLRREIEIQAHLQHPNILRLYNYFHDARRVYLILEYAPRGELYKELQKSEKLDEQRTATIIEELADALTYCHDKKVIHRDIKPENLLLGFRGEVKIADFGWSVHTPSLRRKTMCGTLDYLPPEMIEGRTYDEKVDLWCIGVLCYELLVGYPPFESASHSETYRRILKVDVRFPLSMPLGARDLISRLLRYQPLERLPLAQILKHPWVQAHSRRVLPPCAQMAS

# Sample 1 — target: CCNF, cyclin fold, Cln2 fusion (human); method: yeast growth competition, sequencing; medium: yeast; notes: strong parent motif; reference: not given; reading: higher = stronger binding; parent: viral docking peptide; YKVKRRLVFGADD
Change,normalised enrichment score
D12L,8.84
K2G,8.61
R5A L7A,0.718
L7Y,0.528
V8H,9.14
K2Q,8.32
R6Y,7.65
A11G,8.59
K4Y,9.36
G10I,7.86
R6G,7.04
R6D,1.28
G10M,8.45
G10R,7.95

# Sample 2 — effect on: enzyme activity; action: inhibitor; concentration: 0.5 µM; reference: control
# SMILES: O=C1NC(=O)c2c1c1c3ccccc3n3c1c1c2c2ccccc2n1[C@H]1CC[C@@H]3O1
target,remaining activity
"Aurora kinase C (AURKC, Homo sapiens, UniProt Q9UQB9)",36.5%
"EPHA7 (Homo sapiens, UniProt Q15375)",69.2%
"GRK6 (Homo sapiens, UniProt P43250)",55.6%
"GRK2 (Homo sapiens, UniProt P25098)",97.9%

# Sample 3 — effect on: cell-free assay; method: competition with immobilised ligand; concentration: 1 µM
# Compound: Cn1cncc1[C@](O)(COc1ccc(C#N)cc1-c1ccc(OC(F)(F)F)cc1)c1ccc(C#N)cc1
target,remaining binding
"STK32A (Homo sapiens, UniProt Q8WU08)",100%
"RET (Homo sapiens, UniProt P07949)",94%
"IRAK4 (Homo sapiens, UniProt Q9NWZ3)",75%
"EGFR (Homo sapiens, UniProt P00533, A750P/del747-749)",93%
"CAMK4 (Homo sapiens, UniProt Q16566)",100%
"PIK3CA (Homo sapiens, UniProt P42336)",100%
"CDK13 (Homo sapiens, UniProt Q14004)",67%
"CRK2 (Plasmodium falciparum, UniProt P61075)",77%
"CDK14 (Homo sapiens, UniProt O94921)",86%
"RET (Homo sapiens, UniProt P07949, V804L)",82%
"MELK (Homo sapiens, UniProt Q14680)",74%
"FLT3 (Homo sapiens, UniProt P36888, D835Y)",95%
"MTOR (Homo sapiens, UniProt P42345)",57%

# Sample 4 — method: RNAcompete; form: RNA; medium: in vitro; concentration: 20 nM; notes: 7-mer, probes averaged, single round; reference: mean of 7-mers; reading: higher = stronger binding
# Target: PABPC1L2, full length, GST fusion (mouse, UniProt A0ABA7IW68)
# Target sequence (chain): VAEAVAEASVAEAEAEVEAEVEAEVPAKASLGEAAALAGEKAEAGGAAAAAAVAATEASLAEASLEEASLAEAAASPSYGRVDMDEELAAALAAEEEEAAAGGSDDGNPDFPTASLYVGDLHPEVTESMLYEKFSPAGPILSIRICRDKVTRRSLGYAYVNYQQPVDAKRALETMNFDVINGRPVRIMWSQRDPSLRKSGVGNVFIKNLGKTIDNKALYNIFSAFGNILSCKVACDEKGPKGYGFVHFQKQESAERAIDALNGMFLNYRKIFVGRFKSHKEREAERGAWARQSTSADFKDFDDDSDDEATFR
Strand,7-mer Z-score
GUUCUAC,-0.309
ACAUGUU,-0.255
CUAGUCC,-0.485
UCCGGAG,-0.159
UCGAAUU,-0.146
AAGAACA,0.602
CGCCACU,-0.291
GGGUAGA,0.457
